Results gathered from unrelated publications.
Every numbered part comes from another study and shows a few of its results, in no order.

Block 1
Target: Protein C-ets-1 (ETS1, Homo sapiens, UniProt P14921, residues 1-441, full length assumed)
Technique: protein-binding microarray
Form: double-stranded DNA, one strand shown
Matrix: in vitro
Concentration: not given
Setting: k-mer, scored over probes, only values ≥0.25
Direction: higher = stronger binding
Measurement: E-score
Construct (chain): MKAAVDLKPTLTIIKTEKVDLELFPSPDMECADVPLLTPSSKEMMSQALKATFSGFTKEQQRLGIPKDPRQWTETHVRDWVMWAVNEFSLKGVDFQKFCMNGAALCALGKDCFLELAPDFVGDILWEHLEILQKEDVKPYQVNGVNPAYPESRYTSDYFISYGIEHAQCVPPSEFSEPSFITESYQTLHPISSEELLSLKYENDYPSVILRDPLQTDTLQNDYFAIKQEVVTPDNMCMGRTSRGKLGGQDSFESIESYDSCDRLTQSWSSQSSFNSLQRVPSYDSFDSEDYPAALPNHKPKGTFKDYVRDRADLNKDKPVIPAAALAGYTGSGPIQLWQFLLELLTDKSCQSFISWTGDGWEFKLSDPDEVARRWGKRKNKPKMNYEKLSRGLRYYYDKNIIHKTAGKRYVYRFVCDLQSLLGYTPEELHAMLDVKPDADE
CTTCCTAA: 0.291
CAGGAAAA: 0.381
CATCCTCG: 0.267
GCCGGAAA: 0.487
GGAAGCAA: 0.385
CCCCCGGC: 0.274
GACCGGTA: 0.264
ACCCCGCC: 0.311
CGACCGGA: 0.464
CACCGACA: 0.258
GGCGGACA: 0.332
GAGTATCC: 0.293
CGGAGGAA: 0.377
TGTCGGAA: 0.298
GGCGGAAC: 0.383
CAGCATCC: 0.402
AGATTTCC: 0.397
CCGCGGAA: 0.313
GGATACAC: 0.307
ACTTCCGG: 0.499
GGAAACCA: 0.408
GGAAAACC: 0.292
TTACGGAA: 0.34
CATACCGG: 0.275
ATACTCCG: 0.27

Block 2
Target: TAR DNA-binding protein 43, full length, His tag (TARDBP, Homo sapiens, UniProt Q13148, residues 1-414)
Technique: RNA Bind-n-Seq
Form: RNA
Matrix: in vitro
Concentration: 20 nM
Setting: 6-mer, flanks averaged, single round
With: 150 mM LiCl
Relative to: input library
Direction: higher = stronger binding
Measurement: 6-mer enrichment (R)
UAGACG: 0.896
CCCGCC: 1.08
GCGCCA: 0.964
UAAUCU: 0.89
GAGUAG: 1.1
UGCACC: 1.02
UGAACU: 0.931
CAUAAC: 0.849
CUGUAU: 1.02
CACCAU: 0.992
GCACCU: 0.958
UGCCGG: 0.991
AGCAUU: 0.859
AUUAGU: 0.988
AGGGAA: 0.985
GCAGCA: 0.955
ACUGAU: 0.837
AUUACG: 0.872
CUCCUG: 0.932
GUCUGA: 0.925

Block 3
Target: Ras GTPase-activating protein-binding protein 1, full length (G3BP1, Homo sapiens, UniProt Q13283)
Chain of UniProt Q13283 (whole entry, looked up): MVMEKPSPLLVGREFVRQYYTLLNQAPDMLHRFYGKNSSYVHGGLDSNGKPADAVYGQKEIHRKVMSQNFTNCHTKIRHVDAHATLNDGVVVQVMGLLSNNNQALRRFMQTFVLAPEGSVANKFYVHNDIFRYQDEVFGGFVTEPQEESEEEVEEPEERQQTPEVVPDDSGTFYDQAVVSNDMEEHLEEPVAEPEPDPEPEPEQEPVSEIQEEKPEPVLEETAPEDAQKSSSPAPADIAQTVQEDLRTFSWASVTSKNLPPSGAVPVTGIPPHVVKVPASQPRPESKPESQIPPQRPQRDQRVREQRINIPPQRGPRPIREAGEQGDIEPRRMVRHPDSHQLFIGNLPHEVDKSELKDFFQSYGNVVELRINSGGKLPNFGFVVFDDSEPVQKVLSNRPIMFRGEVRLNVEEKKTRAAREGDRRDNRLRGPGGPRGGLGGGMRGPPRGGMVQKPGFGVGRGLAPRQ
Technique: RNA Bind-n-Seq
Form: RNA
Matrix: in vitro
Concentration: 200 nM
Setting: whole 134-nt RNA, ends assumed
With: 150 mM KCl
Relative to: input library
Direction: higher = stronger binding
Measurement: log2 enrichment
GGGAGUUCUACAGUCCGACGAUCUGGAACAGCAGCUGCCACUCAGGCGUAAUUCCCACCUAGAGGAGAGUUUCACAUCCACCGAAGAAUCUUCCGAAGAAAAUGUCAACUUUUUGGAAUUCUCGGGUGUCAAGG: 0.473
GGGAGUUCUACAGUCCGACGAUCAGUGACCAUUUUAGUUAAAUUUUGUUCCUCUUCCCCCUUUUCACUUUCCUGGAAGAUCGAUGUCCCGAUCAGGAAGGUAGAGAGUUUUCCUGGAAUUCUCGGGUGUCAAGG: -0.168
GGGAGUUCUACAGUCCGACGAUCUGGCCCUGGUGGCAUGCGCGGAGGAAGAGGUGGCCUCAUGGAUCGUGGUGGUCCCGGUGGAAUGUUCAGAGGUGGCCGUGGUGGAGACAGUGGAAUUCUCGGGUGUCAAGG: 0.14
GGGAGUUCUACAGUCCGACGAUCCCUGUGCUACACAUCGUAUGUACCGAAUCGGGAAAAAAAGGGAAAAAAAGGAAAAAAAGGAAAGUAUUAUGUUACGCCGUUCGGAUCUGCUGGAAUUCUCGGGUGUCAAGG: -0.698
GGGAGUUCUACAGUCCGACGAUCAAGUCCUGUGCUACACAUCGUAUGUACCGAAUCGGAAAAGGGAAAAGGGGAAAAGGAAAGUAUUAUGUUACGCCGUUCGGAUCUGCACUUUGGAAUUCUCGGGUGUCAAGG: -0.735
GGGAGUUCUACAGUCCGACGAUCCAAGUCCUGUGCUACACAUCGUAUGUACCGAAUCGGUGGUUUUUUUGGUUUUUGGAAAGUAUUAUGUUACGCCGUUCGGAUCUGCACUUCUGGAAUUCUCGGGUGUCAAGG: -0.945
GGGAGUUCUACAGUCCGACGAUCGCAGGAAGUAAAAACAAAUGGAAAUGCUUCGGAUAGUGGCAGGGGUGGGGGUUGCUAAAGAAAGGGUGGGAUGGGAGUGGGUAAAGAGUUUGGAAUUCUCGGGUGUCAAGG: 0.816
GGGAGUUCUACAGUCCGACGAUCGGCUGCUGGAGUGCCGUGAGCAGGCCGCGGGAACGUCGCCGUCACCUUGUCUCGGGGCCUCGGCGCUGCUUCCCGCCAAAACACGUUUACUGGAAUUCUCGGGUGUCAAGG: -1.24
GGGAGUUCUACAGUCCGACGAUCUCAAGUCCUGUGCUACACAUCGUAUGUACCGAAUCGGUUUGGGUUUGGGUUUGGGAAAGUAUUAUGUUACGCCGUUCGGAUCUGCACUUCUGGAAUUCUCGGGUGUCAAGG: -0.788

Block 4
Target: RNA binding protein fox-1 homolog 2, RRM domain, GST-SBP tag (RBFOX2, Homo sapiens, UniProt O43251-10, residues 100-194)
Technique: RNA Bind-n-Seq
Form: RNA
Matrix: in vitro
Concentration: 365 nM
Setting: natural RNA segment, single round, ends assumed
Relative to: no-protein control
Direction: higher = stronger binding
Measurement: RBNS enrichment (R)
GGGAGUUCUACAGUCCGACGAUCUCACUUCGUUUUUGAGAAGAGUGAUGCCUUGGGCAUGCUUUUUUUUUUUUCUUUUUUAGAAAACAGGGAGUUGAAGUCCAACCUAUUUAAAAACCCCACCAUUUGGAGAAUGGAAUUCUCGGGUGCCAA: 0.425
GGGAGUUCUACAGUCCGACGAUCCUAAGCCUAAGCCUAUGCCUAUGCCUUUCAGAGUUGGGAUUCCGGGCAUGCCACACCACUGCCCAGCUCGUUUAUAUUCUUAAAAGCAAAAUAUUACAUUUCAUUACUGCUGGAAUUCUCGGGUGCCAA: 1.18
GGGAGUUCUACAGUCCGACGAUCUCAAGAACUUCAUUUGCUUCAAAACAAGAUAAUGAACAGAAUGCAUUUGUAAAUGCAAGAUGCAUUGUAAAAUAAAGUUAAGCUUGUUUUUUUUUAAAAAAAACAAAGCAUGGAAUUCUCGGGUGCCAA: 1.71
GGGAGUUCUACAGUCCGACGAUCUCAUCUGAGAACUUCUGAUUAGCUCUCAGUCUUCAGCUCUAUUUAUCUUAGGAGUUUAAUUUGCCCUUCUCUCCCCAUCUUCCCUCAGUUCCCAUAAAACCUUCAUUACAUGGAAUUCUCGGGUGCCAA: 0.986
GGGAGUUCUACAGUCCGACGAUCGAAUCGGUCCAGUUAAGUGCAUGCAAAACGCCACCAAUGAAGGGAUUCUAUCCAGCAAGGUCCUGUUUCCAAGAGUAGCCUAUGGAAUCUGAUCAGUUACUUUAAAAAAUUGGAAUUCUCGGGUGCCAA: 10.7
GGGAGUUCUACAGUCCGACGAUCUCUGUCCCCUUUCAUGGCUGUGCAGCCGUCCCGCUGGAGUGGCCAUGUCCCUUGUGCAUUGAGUGCAUCCCCGCUGGUGACUAAGCUCGCAGCAAGCGGCUACCCCCCGAUGGAAUUCUCGGGUGCCAA: 0.517
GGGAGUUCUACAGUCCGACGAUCCUCCUAAAAAUAUCAUUGUUCUUGGGAGCAGUGUAUGUUACUUUACAUAGCAGCGGUUCCUGUCAUGUGUUCAUGUCAGAAUAUUUUUGGUUUUAAACUUUCUUAUUGCCUGGAAUUCUCGGGUGCCAA: 0.622
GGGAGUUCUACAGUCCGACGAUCGUGUGUUGCUUCUUUCUCUCCUAAAGCAAACCUCUGCCUUUUCUCUAUGCUGUUCGUGUUGGGUUUUGUUCAUGUCAGAUACGUGGUUCAUUCUCAGGACCAAGGGAAACUGGAAUUCUCGGGUGCCAA: 0.486

Block 5
Target: Histone acetyltransferase KAT6A, winged helix 2, GST fusion (KAT6A, Homo sapiens, UniProt Q92794, residues 85-181)
Technique: protein binding microarray
Form: double-stranded DNA, one strand shown
Matrix: in vitro
Concentration: not given
Setting: 8-mer, flanks averaged, mean of 2 arrays, mostly near background
Relative to: not given
Direction: higher = stronger binding
Measurement: E-score
Residues (chain): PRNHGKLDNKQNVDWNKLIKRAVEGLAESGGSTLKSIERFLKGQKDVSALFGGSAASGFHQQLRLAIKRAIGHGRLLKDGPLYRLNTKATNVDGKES
ACGTGTGG: -0.252
GATGCACC: 0.0609
CCGACCGG: 0.175
AAGTTCCA: -0.136
CTTCGGCA: 0.0104
ACTGTTAA: -0.00119
ATTAGCCC: 0.0867
GACCGAGA: 0.112
ATGCCTAC: -0.12
GCGCCCAC: 0.189
GTTCGCCA: 0.0629
CATCAAGC: 0.079
GTAGCCAC: 0.0403
ACGGGGTC: -0.0303
AGAAGATC: -0.112
CAGGTAGA: -0.101
TGGCACCA: -0.0242
CTTGACGC: -0.0258
CCGAAGAC: 0.114
CATTTTCA: -0.027
GACACAAA: 0.21

A few entries again (block 5):
CCGACCGG: 0.175
GCGCCCAC: 0.189
TGGCACCA: -0.0242
CTTCGGCA: 0.0104
ACGGGGTC: -0.0303
CCGAAGAC: 0.114
CAGGTAGA: -0.101
CATCAAGC: 0.079
ATTAGCCC: 0.0867
GTAGCCAC: 0.0403
CTTGACGC: -0.0258
ACTGTTAA: -0.00119
CATTTTCA: -0.027
